# Measured values gathered from unrelated publications.
# Protocols differ between the studies behind these lines. Numbers after ± are the reported error.
# Rhomboid protease AarA: Rhomboid protease AarA (Providencia stuartii, UniProt P46116)
# UniProt P46116, sequence (whole entry, looked up): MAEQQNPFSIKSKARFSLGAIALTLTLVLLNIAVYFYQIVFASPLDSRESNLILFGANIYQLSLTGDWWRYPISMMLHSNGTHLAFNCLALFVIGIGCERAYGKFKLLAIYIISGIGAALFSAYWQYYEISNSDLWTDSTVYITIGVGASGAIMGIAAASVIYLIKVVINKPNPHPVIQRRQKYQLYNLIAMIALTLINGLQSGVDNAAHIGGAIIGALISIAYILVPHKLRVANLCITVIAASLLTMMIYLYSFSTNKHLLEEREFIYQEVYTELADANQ
# PPARG ligand-binding domain: Peroxisome proliferator-activated receptor gamma, ligand-binding domain (PPARG, Homo sapiens, UniProt P37231)
# UniProt P37231, sequence (whole entry, looked up): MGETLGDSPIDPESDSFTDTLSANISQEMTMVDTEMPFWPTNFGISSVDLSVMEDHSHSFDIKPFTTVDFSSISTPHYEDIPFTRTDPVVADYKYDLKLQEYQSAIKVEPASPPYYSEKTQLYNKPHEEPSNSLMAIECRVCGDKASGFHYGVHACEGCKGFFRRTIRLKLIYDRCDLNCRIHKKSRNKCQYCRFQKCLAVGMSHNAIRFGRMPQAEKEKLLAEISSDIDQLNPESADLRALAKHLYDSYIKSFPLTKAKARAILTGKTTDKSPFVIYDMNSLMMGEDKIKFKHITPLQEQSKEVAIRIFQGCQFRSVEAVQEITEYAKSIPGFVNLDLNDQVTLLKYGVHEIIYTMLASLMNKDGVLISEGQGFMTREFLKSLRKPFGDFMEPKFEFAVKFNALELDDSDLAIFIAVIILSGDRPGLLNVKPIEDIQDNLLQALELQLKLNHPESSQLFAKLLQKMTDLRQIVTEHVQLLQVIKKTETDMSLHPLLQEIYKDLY
# UniProt P08172, sequence (whole entry, looked up): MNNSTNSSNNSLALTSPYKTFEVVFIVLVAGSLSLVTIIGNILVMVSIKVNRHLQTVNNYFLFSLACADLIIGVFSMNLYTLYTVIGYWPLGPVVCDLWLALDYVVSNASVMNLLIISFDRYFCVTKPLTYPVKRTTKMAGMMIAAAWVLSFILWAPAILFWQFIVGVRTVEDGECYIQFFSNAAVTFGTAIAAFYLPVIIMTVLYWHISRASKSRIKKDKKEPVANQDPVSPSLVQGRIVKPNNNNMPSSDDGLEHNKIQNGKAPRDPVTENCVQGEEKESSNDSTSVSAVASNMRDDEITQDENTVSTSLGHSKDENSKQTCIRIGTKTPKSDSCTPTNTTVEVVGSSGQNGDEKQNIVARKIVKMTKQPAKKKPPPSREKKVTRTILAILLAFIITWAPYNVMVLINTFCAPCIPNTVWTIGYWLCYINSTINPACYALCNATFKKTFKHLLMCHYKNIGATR
# UniProt Q9P1W9, sequence (whole entry, looked up): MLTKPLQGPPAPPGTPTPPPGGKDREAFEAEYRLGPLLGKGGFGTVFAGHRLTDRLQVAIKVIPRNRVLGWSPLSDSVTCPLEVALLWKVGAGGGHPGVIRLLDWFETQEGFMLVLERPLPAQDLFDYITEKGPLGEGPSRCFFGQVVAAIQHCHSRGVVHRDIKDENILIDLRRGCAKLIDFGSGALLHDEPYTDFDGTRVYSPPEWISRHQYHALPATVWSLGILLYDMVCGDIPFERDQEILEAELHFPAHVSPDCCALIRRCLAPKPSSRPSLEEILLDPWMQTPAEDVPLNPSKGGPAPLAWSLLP
# UniProt P43358, sequence (whole entry, looked up): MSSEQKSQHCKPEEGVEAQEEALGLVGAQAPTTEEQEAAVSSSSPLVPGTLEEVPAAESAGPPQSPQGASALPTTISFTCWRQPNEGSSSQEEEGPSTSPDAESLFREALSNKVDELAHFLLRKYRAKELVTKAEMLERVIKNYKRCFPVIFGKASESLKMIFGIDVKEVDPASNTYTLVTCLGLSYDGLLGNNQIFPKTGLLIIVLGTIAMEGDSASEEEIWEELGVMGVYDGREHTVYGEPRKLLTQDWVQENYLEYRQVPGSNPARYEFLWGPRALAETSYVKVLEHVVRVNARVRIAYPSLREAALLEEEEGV
# UniProt P08173, sequence (whole entry, looked up): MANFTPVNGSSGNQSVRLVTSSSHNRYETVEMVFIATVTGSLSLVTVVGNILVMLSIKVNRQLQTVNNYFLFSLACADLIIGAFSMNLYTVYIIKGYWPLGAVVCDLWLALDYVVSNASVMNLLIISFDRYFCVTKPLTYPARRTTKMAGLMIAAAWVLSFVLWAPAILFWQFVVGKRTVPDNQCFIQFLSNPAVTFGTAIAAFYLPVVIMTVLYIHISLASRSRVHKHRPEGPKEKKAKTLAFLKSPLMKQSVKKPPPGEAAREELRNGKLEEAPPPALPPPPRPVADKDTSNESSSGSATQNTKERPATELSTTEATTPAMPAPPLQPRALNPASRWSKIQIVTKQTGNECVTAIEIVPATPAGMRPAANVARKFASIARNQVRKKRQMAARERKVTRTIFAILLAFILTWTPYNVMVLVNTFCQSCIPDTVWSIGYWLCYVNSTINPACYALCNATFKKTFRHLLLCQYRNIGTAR
# UniProt P04406, sequence (whole entry, looked up): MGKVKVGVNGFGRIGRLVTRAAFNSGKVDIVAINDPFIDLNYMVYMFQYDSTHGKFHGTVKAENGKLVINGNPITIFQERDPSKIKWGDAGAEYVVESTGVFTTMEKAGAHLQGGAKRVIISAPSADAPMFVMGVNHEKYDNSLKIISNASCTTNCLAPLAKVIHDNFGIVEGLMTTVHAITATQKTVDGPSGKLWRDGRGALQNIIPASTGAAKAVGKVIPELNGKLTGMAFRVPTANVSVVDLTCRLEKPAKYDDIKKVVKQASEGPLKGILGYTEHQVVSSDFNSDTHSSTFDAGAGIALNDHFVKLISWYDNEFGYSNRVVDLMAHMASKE
# UniProt O75582, sequence (whole entry, looked up): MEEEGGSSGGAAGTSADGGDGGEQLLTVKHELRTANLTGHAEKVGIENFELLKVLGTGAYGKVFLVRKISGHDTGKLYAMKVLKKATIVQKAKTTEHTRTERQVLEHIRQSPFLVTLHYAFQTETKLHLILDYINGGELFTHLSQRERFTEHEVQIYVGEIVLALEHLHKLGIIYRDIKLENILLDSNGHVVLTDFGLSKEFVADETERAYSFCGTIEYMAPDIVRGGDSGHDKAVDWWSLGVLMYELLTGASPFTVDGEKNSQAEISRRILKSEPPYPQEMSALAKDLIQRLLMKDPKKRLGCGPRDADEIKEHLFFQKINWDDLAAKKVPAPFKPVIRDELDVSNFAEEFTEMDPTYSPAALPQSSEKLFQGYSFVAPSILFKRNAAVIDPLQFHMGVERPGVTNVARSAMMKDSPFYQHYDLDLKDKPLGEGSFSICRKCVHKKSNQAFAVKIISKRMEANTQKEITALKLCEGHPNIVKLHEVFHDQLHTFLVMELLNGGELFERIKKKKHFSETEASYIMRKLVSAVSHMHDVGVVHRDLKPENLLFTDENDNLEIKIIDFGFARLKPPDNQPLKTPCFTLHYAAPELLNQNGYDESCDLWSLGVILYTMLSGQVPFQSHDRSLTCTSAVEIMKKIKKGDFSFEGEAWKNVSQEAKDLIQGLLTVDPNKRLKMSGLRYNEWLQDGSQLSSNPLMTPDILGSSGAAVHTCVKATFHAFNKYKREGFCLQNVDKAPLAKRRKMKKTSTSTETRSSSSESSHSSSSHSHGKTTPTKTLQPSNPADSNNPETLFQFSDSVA
# UniProt Q13547, sequence (whole entry, looked up): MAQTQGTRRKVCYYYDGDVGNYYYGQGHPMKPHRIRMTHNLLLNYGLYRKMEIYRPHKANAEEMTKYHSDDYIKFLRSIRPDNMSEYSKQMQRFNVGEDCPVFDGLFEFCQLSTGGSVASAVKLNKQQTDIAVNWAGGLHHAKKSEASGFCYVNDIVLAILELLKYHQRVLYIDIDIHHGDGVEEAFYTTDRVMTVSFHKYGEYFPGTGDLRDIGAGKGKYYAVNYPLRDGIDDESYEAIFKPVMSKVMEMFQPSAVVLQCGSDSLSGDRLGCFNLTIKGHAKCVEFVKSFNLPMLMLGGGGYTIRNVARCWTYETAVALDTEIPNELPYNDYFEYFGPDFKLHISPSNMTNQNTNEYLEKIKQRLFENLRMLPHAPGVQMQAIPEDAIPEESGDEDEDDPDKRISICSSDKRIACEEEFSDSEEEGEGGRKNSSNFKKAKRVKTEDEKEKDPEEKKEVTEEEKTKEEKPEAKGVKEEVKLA
SMILES,target,assay,system,setting,IC50
Cc1onc(-c2ccccc2)c1CNC(=O)C(C(F)(F)F)C(F)(F)F,Rhomboid protease AarA,"enzyme activity, inhibitor, fluorescence",,,12 µM
O=C(Cc1ccc(OCc2ccccc2)cc1)NC1(C(=O)O)CCN(C(=O)c2ccc(-c3cccc(Cl)c3)cc2)CC1,"Muscarinic acetylcholine receptor M2 (CHRM2, Homo sapiens, UniProt P08172)","antagonist, GloSensor cAMP",,,> 10 µM
Cc1cc(C)nc(NC(=S)N2CCN(Cc3ccc(C(F)(F)F)cc3)CC2)c1,"Glyceraldehyde-3-phosphate dehydrogenase (GAPDH, Homo sapiens, UniProt P04406)","enzyme activity, inhibitor",,,> 100 µM
Cc1ccccc1NC(=O)C(C(F)(F)F)C(F)(F)F,Rhomboid protease AarA,"enzyme activity, inhibitor, fluorescence",,,25.9 µM
COC(=O)CCCCCCC(=O)Nc1ccc(Nc2ncc(F)c(-c3cc(F)c4nc(C)n(C(C)C)c4c3)n2)nc1,"Histone deacetylase 1 (HDAC1, Homo sapiens, UniProt Q13547)","enzyme activity, inhibitor",,,> 1 µM
CCN(CC)CC(=O)Nc1cccc(-n2cc(-c3ccc4ccc(-c5cn(-c6cccc(NC(=O)CN(CC)CC)c6)nn5)cc4c3)nn2)c1,"Serine/threonine-protein kinase pim-2 (PIM2, Homo sapiens, UniProt Q9P1W9)","enzyme activity, inhibitor",,,> 10 µM
Cc1c(Cc2ccc(OC(C)(C)C(=O)O)cc2)c2ccc(C(=O)N[C@@H](C)c3cccc(C(C)C)c3)cc2n1C,PPARG ligand-binding domain,"reporter gene, luciferase reporter","HEK293T, Gal4-PPARγ LBD",,1.64 µM
O=C(NCC1CC1)c1ccccc1NC(=O)C(C(F)(F)F)C(F)(F)F,Rhomboid protease AarA,"enzyme activity, inhibitor, fluorescence",,,6.7 µM
Cc1c(Cc2cccc(OC(C)C(=O)O)c2Cl)c2ccc(C(=O)NC(C)c3ccc(C(C)(C)C)cc3)cc2n1C (stereo not shown),"Peroxisome proliferator-activated receptor gamma (PPARG, Homo sapiens, UniProt P37231)","ligand displacement, TR-FRET",,,0.015 µM
O=C(CCNC(=O)CNC(=O)CC(c1ccccc1)(c1ccccc1)c1ccccc1)NC[C@H]1CCCN(C(=O)c2ccc(F)cc2)C1,"Muscarinic acetylcholine receptor M4 (CHRM4, Homo sapiens, UniProt P08173)","ligand displacement, radioligand",,cell membranes,> 30 µM
Cc1c(Cc2cccc(OC(C(=O)O)C(F)(F)F)c2)c2ccc(C(=O)N[C@@H](C)c3cccc(C(C)(C)C)c3)cc2n1C (stereo partly shown),PPARG ligand-binding domain,"reporter gene, luciferase reporter","HEK293T, Gal4-PPARγ LBD",,77.7 µM
Cc1ccc(C(F)(F)CNC(=O)c2cc(Cl)nnc2Oc2cccc(C(F)(F)F)c2)c(C)c1,"serine palmitoyltransferase (Zymoseptoria tritici, UniProt F9X349+F9XMN6)",,,,0.168 ± 0.045 µM
CCC(Oc1cccc(Cc2c(C)n(C)c3cc(C(=O)NC(C)c4cccc(C(C)(C)C)c4)ccc23)c1)C(=O)O (mixture of isomers),PPARG ligand-binding domain,"reporter gene, luciferase reporter","HEK293T, Gal4-PPARγ LBD",,141 µM
Cc1nn(-c2cccc(N)c2)c(=O)c2cnc(Nc3ccc(N4CCNCC4)cc3)nc12,"Ribosomal protein S6 kinase alpha-5 (RPS6KA5, Homo sapiens, UniProt O75582)","enzyme activity, inhibitor",,,0.768 µM
Cc1c(Cc2ccc(OC(C)C(=O)O)cc2)c2ccc(C(=O)NC(C)c3ccc(C(F)(F)F)cc3)cc2n1C (mixture of isomers),PPARG ligand-binding domain,"reporter gene, luciferase reporter","HEK293T, Gal4-PPARγ LBD",,5.37 µM
CC[C@H](C)[C@@H]1NC(=O)[C@H](Cc2ccccc2)NC(=O)CCSCc2cccc(c2)CSCCNC(=O)[C@H](Cc2c[nH]cn2)NC(=O)[C@H](Cc2ccc(O)cc2)NC(=O)[C@H](CC(=O)O)NC(=O)[C@H](Cc2ccc(F)cc2)NC(=O)[C@H](CC(C)C)NC(=O)[C@H](CCCCN)NC1=O,"Melanoma-associated antigen 4, MHD; with RAD18 (Homo sapiens, UniProt P43358)","protein-protein interaction, NanoBRET",HEK293,1.5 h,1.62 µM
